{"sequences": {"note": "Amino acid sequences for entries named in this document (tags omitted). Residues count along the entry.", "UniProt P26038, whole entry, looked up": "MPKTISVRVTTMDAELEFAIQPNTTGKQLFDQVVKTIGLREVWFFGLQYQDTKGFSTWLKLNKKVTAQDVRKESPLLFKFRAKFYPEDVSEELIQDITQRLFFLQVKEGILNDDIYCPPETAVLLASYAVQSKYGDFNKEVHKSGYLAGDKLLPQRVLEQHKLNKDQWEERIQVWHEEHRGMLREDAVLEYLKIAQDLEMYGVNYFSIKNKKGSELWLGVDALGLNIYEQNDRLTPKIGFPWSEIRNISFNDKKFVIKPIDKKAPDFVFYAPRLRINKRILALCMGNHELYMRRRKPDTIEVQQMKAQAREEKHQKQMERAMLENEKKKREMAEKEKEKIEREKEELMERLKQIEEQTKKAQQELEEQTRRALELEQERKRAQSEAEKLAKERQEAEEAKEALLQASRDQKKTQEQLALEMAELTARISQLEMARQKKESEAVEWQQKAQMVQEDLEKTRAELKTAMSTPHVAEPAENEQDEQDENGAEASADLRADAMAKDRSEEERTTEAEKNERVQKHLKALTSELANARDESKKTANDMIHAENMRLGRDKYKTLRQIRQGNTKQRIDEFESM", "UniProt P03372, whole entry": "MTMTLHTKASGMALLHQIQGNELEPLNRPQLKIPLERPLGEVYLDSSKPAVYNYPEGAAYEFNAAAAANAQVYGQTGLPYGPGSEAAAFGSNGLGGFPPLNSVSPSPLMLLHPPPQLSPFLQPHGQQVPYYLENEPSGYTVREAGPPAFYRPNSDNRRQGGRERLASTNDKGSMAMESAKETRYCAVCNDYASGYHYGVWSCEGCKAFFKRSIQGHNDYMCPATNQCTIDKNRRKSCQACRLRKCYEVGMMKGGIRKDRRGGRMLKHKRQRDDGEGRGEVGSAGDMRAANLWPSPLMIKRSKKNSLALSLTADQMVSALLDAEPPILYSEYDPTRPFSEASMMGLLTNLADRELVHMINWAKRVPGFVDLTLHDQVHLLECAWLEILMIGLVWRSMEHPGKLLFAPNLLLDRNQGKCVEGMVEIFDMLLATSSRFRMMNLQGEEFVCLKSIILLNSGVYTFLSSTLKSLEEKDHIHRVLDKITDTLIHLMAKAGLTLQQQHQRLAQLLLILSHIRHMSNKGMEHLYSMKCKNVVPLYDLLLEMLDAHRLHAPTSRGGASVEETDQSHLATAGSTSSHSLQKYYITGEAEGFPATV", "UniProt Q00959, 23-1464 limits assumed": "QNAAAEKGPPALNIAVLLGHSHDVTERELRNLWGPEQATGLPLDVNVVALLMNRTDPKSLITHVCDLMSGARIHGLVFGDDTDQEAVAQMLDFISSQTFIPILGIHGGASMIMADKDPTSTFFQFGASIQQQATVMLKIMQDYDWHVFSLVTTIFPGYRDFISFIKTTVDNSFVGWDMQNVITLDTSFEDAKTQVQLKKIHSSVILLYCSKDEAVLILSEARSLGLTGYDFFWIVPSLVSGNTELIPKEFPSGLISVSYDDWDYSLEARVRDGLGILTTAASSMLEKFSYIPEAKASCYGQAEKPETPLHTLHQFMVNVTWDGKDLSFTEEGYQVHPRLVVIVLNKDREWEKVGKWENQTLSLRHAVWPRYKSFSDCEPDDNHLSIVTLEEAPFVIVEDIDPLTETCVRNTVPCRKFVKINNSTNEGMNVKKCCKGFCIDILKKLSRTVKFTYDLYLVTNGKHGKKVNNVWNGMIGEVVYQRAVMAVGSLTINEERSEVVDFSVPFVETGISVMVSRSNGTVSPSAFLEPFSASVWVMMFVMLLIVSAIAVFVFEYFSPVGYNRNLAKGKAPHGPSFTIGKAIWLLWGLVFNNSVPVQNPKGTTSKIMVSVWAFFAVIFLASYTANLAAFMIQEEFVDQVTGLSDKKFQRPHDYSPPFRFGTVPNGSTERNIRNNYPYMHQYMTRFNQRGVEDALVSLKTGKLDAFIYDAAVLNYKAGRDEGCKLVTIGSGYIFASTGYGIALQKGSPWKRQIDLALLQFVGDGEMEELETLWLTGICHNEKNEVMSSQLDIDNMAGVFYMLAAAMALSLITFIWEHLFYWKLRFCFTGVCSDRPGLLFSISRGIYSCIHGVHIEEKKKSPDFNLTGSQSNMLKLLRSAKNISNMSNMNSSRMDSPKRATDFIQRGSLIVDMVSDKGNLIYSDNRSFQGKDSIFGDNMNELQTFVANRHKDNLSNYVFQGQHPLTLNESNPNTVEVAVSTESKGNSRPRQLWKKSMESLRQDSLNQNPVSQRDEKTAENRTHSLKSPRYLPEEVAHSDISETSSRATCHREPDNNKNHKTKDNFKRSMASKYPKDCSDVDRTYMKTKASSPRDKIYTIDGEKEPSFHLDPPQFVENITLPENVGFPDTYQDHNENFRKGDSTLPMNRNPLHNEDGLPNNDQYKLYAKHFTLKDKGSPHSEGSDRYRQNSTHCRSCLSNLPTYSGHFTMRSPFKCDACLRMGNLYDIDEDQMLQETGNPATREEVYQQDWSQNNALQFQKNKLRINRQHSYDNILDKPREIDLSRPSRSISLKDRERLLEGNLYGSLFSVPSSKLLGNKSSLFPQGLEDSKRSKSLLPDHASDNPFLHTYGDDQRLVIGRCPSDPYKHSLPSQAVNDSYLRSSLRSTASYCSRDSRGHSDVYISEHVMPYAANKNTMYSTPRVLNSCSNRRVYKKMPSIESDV", "UniProt P46116, whole entry": "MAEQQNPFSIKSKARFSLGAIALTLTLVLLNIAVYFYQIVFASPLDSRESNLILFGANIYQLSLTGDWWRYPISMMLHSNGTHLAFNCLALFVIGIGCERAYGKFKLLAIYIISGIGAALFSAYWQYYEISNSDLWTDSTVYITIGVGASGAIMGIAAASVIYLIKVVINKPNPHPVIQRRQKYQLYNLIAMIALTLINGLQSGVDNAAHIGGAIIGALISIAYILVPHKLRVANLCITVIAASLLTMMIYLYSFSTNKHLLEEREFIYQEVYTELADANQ", "UniProt P00533, 25-1210 limits assumed": "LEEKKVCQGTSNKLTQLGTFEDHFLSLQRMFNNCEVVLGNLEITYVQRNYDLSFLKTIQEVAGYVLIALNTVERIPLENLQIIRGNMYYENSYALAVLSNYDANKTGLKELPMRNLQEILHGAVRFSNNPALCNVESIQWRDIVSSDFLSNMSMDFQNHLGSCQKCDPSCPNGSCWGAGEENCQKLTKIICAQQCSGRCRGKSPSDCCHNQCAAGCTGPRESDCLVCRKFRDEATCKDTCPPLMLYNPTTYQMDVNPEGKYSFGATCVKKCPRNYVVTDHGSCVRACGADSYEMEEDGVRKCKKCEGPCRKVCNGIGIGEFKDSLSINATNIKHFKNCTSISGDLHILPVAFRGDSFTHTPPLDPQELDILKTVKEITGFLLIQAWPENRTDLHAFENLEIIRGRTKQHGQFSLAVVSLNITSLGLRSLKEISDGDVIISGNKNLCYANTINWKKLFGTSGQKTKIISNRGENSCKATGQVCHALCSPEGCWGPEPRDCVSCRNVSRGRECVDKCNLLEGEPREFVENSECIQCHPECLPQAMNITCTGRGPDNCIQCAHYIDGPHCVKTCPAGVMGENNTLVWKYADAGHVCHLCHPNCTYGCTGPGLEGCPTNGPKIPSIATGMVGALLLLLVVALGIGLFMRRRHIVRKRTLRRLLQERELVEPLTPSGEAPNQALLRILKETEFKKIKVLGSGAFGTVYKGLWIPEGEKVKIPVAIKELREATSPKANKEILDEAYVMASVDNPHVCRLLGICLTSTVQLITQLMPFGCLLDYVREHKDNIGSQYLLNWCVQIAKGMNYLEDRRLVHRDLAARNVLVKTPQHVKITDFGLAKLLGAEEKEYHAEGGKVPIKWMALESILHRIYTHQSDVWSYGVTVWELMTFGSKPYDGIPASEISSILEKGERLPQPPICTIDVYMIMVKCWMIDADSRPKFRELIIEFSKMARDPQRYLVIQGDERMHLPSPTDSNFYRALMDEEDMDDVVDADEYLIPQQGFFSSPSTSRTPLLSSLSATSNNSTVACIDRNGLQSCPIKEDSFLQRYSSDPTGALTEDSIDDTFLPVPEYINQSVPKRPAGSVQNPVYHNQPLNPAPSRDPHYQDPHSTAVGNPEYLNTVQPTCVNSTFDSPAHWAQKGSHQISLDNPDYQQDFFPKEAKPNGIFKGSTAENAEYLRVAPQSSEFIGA", "UniProt O14920, whole entry": "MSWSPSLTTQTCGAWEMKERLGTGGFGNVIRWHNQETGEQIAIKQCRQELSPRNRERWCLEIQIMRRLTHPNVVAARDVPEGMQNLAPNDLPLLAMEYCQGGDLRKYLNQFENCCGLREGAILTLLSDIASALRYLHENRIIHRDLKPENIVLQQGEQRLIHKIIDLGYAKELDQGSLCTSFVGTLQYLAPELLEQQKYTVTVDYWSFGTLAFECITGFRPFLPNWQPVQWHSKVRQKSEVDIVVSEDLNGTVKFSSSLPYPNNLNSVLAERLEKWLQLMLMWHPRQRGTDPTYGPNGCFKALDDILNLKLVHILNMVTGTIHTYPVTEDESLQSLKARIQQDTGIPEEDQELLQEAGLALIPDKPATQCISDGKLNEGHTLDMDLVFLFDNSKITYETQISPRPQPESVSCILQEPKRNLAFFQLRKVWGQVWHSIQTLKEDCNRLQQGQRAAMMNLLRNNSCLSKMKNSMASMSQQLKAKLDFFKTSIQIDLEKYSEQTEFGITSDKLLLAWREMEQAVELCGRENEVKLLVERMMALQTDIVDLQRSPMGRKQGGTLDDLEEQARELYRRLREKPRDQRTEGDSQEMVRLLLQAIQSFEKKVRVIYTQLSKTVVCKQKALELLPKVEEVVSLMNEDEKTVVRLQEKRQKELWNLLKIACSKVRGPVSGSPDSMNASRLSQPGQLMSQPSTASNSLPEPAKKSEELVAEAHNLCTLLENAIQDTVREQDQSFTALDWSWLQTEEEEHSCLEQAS", "UniProt P05067, whole entry, looked up": "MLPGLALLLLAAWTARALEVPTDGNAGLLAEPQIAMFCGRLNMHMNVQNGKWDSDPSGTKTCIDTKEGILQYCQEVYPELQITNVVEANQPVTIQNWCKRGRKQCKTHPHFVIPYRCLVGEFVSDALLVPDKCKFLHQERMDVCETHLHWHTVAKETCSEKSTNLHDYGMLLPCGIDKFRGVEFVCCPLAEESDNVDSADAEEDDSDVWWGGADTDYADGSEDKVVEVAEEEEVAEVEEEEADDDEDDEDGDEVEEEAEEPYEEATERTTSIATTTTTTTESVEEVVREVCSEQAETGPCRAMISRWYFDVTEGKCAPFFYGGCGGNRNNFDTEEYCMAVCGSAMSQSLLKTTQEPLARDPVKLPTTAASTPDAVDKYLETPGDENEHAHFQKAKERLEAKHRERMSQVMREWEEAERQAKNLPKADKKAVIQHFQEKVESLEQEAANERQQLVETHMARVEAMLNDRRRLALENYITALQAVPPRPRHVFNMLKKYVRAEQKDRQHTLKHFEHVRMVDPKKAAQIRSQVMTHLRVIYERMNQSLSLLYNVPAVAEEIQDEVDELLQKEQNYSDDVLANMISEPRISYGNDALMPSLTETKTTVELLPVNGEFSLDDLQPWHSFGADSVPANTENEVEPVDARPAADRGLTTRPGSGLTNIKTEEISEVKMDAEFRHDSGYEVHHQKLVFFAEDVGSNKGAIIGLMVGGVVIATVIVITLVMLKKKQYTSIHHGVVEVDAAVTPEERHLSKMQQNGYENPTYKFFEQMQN", "UniProt P56658, whole entry": "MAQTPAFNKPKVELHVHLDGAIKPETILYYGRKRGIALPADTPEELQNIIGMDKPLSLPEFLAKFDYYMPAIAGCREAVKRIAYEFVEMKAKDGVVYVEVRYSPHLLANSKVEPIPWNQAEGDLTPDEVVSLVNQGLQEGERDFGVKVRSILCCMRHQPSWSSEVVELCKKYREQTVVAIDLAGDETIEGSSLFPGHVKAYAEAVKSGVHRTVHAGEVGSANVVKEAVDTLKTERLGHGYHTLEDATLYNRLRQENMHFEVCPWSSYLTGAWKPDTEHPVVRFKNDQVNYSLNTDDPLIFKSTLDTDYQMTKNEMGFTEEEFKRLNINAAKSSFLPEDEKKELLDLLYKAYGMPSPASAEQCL", "UniProt P29466, whole entry, looked up": "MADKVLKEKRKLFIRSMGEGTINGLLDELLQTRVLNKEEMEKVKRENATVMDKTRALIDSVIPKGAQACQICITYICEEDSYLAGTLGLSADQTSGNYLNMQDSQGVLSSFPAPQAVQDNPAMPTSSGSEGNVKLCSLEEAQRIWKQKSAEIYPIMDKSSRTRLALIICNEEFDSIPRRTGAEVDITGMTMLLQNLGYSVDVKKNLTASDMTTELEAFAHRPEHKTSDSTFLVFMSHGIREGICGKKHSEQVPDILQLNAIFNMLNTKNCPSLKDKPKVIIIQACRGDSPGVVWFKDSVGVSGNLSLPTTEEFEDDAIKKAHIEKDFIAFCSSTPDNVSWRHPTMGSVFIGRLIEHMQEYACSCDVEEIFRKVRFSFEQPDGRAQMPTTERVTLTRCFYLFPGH"}, "data": "Experimental data gathered from unrelated publications", "note": "Numbers after ± are the reported error."}
{"SMILES": "O=C(Nc1ccc(-c2nc3ccccc3s2)cc1)C1CCCCC1", "target": "Moesin, with CD44 (Homo sapiens, UniProt P26038)", "test": "MSN-CD44 interaction, inhibitor, TR-FRET", "conditions": "with: CD44", "IC50": "> 100 µM"}
{"SMILES": "CC(C)CNC(=O)CSc1nc2ccc(NC(=O)CSc3ccccc3C(C)(C)C)cc2s1", "target": "Estrogen receptor (ESR1, Homo sapiens, UniProt P03372)", "test": "reporter gene, antagonist", "system": "HEC-1 transfected ERα luciferase reporter", "IC50": "5.8 µM"}
{"SMILES": "NS(=O)(=O)c1ccc(Cc2c(-c3ccc(F)c(C#CC4CCCC4)c3)nn(-c3nc(C(=O)O)cs3)c2CC2CC2)cc1F", "target": "LDHA (Homo sapiens, UniProt P00338)", "test": "enzyme activity, inhibitor", "IC50": "0.06 ± 0.13 µM"}
{"SMILES": "CC(=O)N1CCN(c2ccc(Nc3ncc4c(n3)N(C)C(=O)N(c3cc(NC(=O)c5ccc(CN6CCC(N(C)C)C6)c(C(F)(F)F)c5)ccc3C)C4)cn2)CC1 (stereo not shown)", "target": "FGFR4 (Homo sapiens, UniProt P22455)", "test": "enzyme activity, inhibitor, radiometric kinase", "IC50": "< 0.001 µM"}
{"SMILES": "O=C(N/N=C/c1ccc(Sc2ncccn2)o1)c1cccc(OC(F)(F)F)c1", "target": "Protein phosphatase EYA2 (Homo sapiens, UniProt O00167)", "test": "tyrosine phosphatase activity, inhibitor", "IC50": "3.39 µM"}
{"SMILES": "O=C(O)c1cc(C(=O)N2CCC[C@H]2C(=O)O)cc([C@H]2CCN[C@@H]2C(=O)O)c1", "target": "Glutamate receptor ionotropic, NMDA 2A, with GluN1 (Grin2a, Rattus norvegicus, UniProt Q00959)", "test": "ion current, antagonist, two-electrode voltage clamp", "system": "Xenopus oocytes", "conditions": "GluN1/GluN2A, with: glycine 100 µM and glutamate 1 µM", "IC50": "1 ± 0.06 µM"}
{"SMILES": "COc1ccc(C2Oc3cc(O)cc(O)c3C(=O)C2C2C(=O)c3c(O)cc(O)cc3OC2c2ccc(O)cc2)cc1 (stereo not shown)", "target": "Rhomboid protease AarA (Providencia stuartii, UniProt P46116)", "test": "inhibitor, fluorogenic peptide substrate", "IC50": "9.4 µM"}
{"SMILES": "COc1ccc2c(Nc3ccc(NC(=O)c4ccc(C)cc4)c(O)c3)ccnc2c1", "target": "PKN3 (Homo sapiens, UniProt Q6P5Z2)", "test": "binding, split-luciferase", "IC50": "11 µM"}
{"SMILES": "C=CC(=O)Nc1cccc(N(C(=O)OCc2ccc(F)cc2)c2ccnc(Nc3ccn(C)n3)n2)c1", "target": "EGFR (Homo sapiens, UniProt P00533)", "test": "enzyme activity, inhibitor, Z'-LYTE", "conditions": "with: ATP 100 µM", "IC50": "0.0008 ± 0.0001 µM"}
{"SMILES": "COc1cc(O)ccc1CCC(=O)c1ccc(O)cc1", "target": "ALOX5 (Homo sapiens, UniProt P09917)", "test": "enzyme activity", "system": "cell-free", "IC50": "8.9 µM"}
{"SMILES": "CN1CCN(c2cc(C(=O)Nc3ccc4c(c3)-c3c(c(C(N)=O)nn3-c3ccc(F)cc3)CC4)c(Cl)cn2)CC1", "target": "IKBKB (Homo sapiens, UniProt O14920)", "test": "kinase activity, inhibitor", "system": "stimulated RASF cell lysate", "conditions": "1 h, with: IL-1β stimulation", "IC50": "0.03 to 0.06 µM"}
{"SMILES": "N#Cc1ccc2[nH]cc(/C=C/c3cccc(O)c3)c2c1", "target": "Amyloid-beta precursor protein, amyloid-beta peptide (APP, Homo sapiens, UniProt P05067)", "test": "Aβ42 oligomerisation, ELISA", "IC50": "> 20 µM"}
{"SMILES": "O=C(NCc1ccc(-c2cnco2)cc1)[C@@H]1C[C@@H](O)CN1C(=O)c1cccc(O)c1", "target": "von Hippel-Lindau disease tumor suppressor, with elongin B, C (VHL, Homo sapiens, UniProt P40337)", "test": "binding, fluorescence polarization", "conditions": "1% DMSO, with: FAM-HIF1α peptide tracer", "IC50": "18 ± 0.4 µM"}
{"SMILES": "O=C(c1ccc(O)c(Br)c1)N1Cc2ccccc2C1", "target": "HSP90AA1 (Homo sapiens, UniProt P07900)", "test": "binding, fluorescence polarization", "conditions": "with: FITC-geldanamycin", "IC50": "~2.7 µM"}
{"SMILES": "Oc1ccccc1C1=NCCS1", "target": "Adenosine deaminase (ADA, Bos taurus, UniProt P56658)", "test": "enzyme activity", "conditions": "25 °C", "IC50": "> 700 µM"}
{"SMILES": "O=C(CCl)N1CCN(c2cc(N3CCCC3)nc(N3CCCC3)n2)CC1", "target": "Caspase-1 (CASP1, Homo sapiens, UniProt P29466)", "test": "inhibitor", "conditions": "60 min preincubation", "IC50": "0.424 ± 0.23 µM"}
{"SMILES": "O=C(Nc1ccc(Cl)cc1)C(NS(=O)(=O)c1ccccc1)c1ccccc1 (stereo not shown)", "target": "Uracil nucleotide/cysteinyl leukotriene receptor, long isoform (GPR17, Homo sapiens, UniProt Q13304)", "test": "calcium mobilization, antagonist", "system": "1321-N1", "IC50": "15.2 ± 1.27 µM"}
{"SMILES": "N#Cc1ccc2[nH]cc(/C=C/c3ccc([N+](=O)[O-])cc3F)c2c1", "target": "IDO1 (Homo sapiens, UniProt P14902)", "test": "enzyme activity, inhibitor", "IC50": "> 100 µM"}
{"SMILES": "NC(N)=NN=C1CCCc2cc(NC(=O)c3cc4cccc([N+](=O)[O-])c4[nH]3)ccc21", "target": "RPS6KA3 (Homo sapiens, UniProt P51812)", "test": "kinase activity, inhibitor, IMAP fluorescence polarization", "IC50": "> 100 µM"}
